Published values gathered from unrelated publications.
Cell line: SK-MEL-5

Cc1cc(=O)[nH]c(=O)n1Cc1cn(-c2cc3ccccc3oc2=O)nn1  growth percentage (NCI60 single-dose screen; 10 µM): 100%
Cc1cc(C)n(-c2nc(-c3ccc(Cl)cc3)c3c(NC(=O)c4ccccc4)nnc-3[nH]2)n1  cell growth (SRB; 10 µM, NCI60 single-dose screen; relative to: untreated): 87.9%
CCOc1ccc(-c2nc3cc(-c4nc5cc(N6CCN(C)CC6)ccc5[nH]4)ccc3[nH]2)cc1OCC  growth percent (SRB; 10 µM, 48 h): 8.43%
NNc1nc(-c2ccc(Cl)cc2)c2c(NC(=O)c3ccccc3)nnc-2[nH]1  cell growth (SRB; 10 µM, NCI60 single-dose screen; relative to: untreated): 101%
CCCN1CCN(c2ccc3[nH]c(-c4ccc5[nH]c(-c6ccc(C(F)(F)F)cc6)nc5c4)nc3c2)CC1  growth percent (SRB; 10 µM, 48 h): 37.2%
O=C1NC(c2ccccc2)(c2ccccc2)C(=O)N1Cc1cn(-c2c3ccccc3nc3ccccc23)nn1  growth percentage (NCI60 single-dose screen; 10 µM): 82.2%
Cn1cncc1C1=CN(c2ncnc3[nH]cnc23)CCS1  TGI (melanoma cell line): 51.3 µM
O=C1NC(c2ccccc2)(c2ccccc2)C(=O)N1Cc1cn(-c2cc3ccccc3oc2=O)nn1  growth percentage (NCI60 single-dose screen; 10 µM): 87.9%
CCCCN1CCN(c2ccc3[nH]c(-c4ccc5[nH]c(-c6ccc(OCC)cc6)nc5c4)nc3c2)CC1  growth percent (SRB; 10 µM, 48 h): 49.3%
C#C[C@@]1(O)[C@@H](CO)O[C@@H](n2ccc3c(N)ncnc32)[C@@H]1O  TGI (SRB; NCI-60 screen): 2.96 µM
COc1ccc(OC)c(-c2nc3ccc(-c4nc5ccc(N6CCN(C)CC6)cc5[nH]4)cc3[nH]2)c1  growth percent (SRB; 10 µM, 48 h): 84.3%
CSc1nc(-c2ccc(Cl)cc2)c2c(NC(=O)c3ccccc3)nnc-2[nH]1  cell growth (SRB; 10 µM, NCI60 single-dose screen; relative to: untreated): 98.9%
O=C(/C=C/C=C/C=C/C1CCCCC1)NC1=C[C@@](O)(/C=C/C=C/C=C/C(=O)NC2=C(O)CCC2=O)[C@@H]2O[C@@H]2C1=O  GI50 (cell growth, CellTiter-Glo; 78 h): 20.5 µM
O=C(Nc1nnc2n3c(nc(-c4ccc(Cl)cc4)c1-2)SCC3=O)c1ccccc1  cell growth (SRB; 10 µM, NCI60 single-dose screen; relative to: untreated): 96.3%
O=c1ccn(Cc2cn(-c3cc4ccccc4oc3=O)nn2)c(=O)[nH]1  growth percentage (NCI60 single-dose screen; 10 µM): 96.8%
O=C(Nc1nnc2n3c(Cc4ccccc4)n[nH]c3nc(-c3ccc(Cl)cc3)c1-2)c1ccccc1  cell growth (SRB; 10 µM, NCI60 single-dose screen; relative to: untreated): 97.7%
CCCN1CCN(c2ccc3nc(-c4ccc5nc(-c6cc(OC)ccc6OC)[nH]c5c4)[nH]c3c2)CC1  growth percent (SRB; 10 µM, 48 h): 99.5%
C#C[C@@]1(O)[C@@H](CO)O[C@@H](n2cc(F)c3c(N)ncnc32)[C@@H]1O  TGI (SRB; NCI-60 screen): 1.33 µM
CCCN1CCN(c2ccc3[nH]c(-c4ccc5[nH]c(-c6cc(OC)c(OC)c(OC)c6)nc5c4)nc3c2)CC1  growth percent (SRB; 10 µM, 48 h): 41.3%
CC[C@H](C)[C@H](NC(=O)[C@H](CCCCN)NC(=O)[C@@H](NC(=O)[C@H](CCCNC(=N)N)NC(=O)[C@@H](NC(=O)[C@@H](CCCNC(=N)N)NC(=O)[C@@H](CCCNC(=N)N)NC(=O)[C@@H](CCCNC(=N)N)NC(=O)[C@@H](CCCNC(=N)N)NC(=O)[C@@H](CCCNC(=N)N)NC(=O)[C@H](N)CCCNC(=N)N)[C@@H](C)O)[C@@H](C)O)C(=O)N[C@@H](CC(=O)O)C(=O)N[C@@H](Cc1c[nH]c2ccccc12)C(=O)NC(C)(C)C(=O)N[C@@H](CCCCN)C(=O)N[C@H](C(=O)N[C@@H](CC(C)C)C(=O)NC(C)(C)C(=O)N[C@@H](CCCCN)C(=O)NCCCCCC(=O)NCCCC[C@H](NC(=O)CCCCCNC(=O)[C@H](CCCCN)NC(=O)C(C)(C)NC(=O)[C@H](CC(C)C)NC(=O)[C@@H](NC(=O)[C@H](CCCCN)NC(=O)C(C)(C)NC(=O)[C@H](Cc1c[nH]c2ccccc12)NC(=O)[C@H](CC(=O)O)NC(=O)[C@@H](NC(=O)[C@H](CCCCN)NC(=O)[C@@H](NC(=O)[C@H](CCCNC(=N)N)NC(=O)[C@@H](NC(=O)[C@@H](CCCNC(=N)N)NC(=O)[C@@H](CCCNC(=N)N)NC(=O)[C@@H](CCCNC(=N)N)NC(=O)[C@@H](CCCNC(=N)N)NC(=O)[C@@H](CCCNC(=N)N)NC(=O)[C@H](N)CCCNC(=N)N)[C@@H](C)O)[C@@H](C)O)[C@@H](C)CC)[C@@H](C)CC)C(N)=O)[C@@H](C)CC  necrotic cells (annexin V/PI flow cytometry; 10 µM, 6 h): 14%
